Measured values gathered from unrelated publications.
Numbered parts are unrelated; each lists some results of a single study. Substitutions count along the parent as printed.

Sample 1
Target: ABI1, truncated, D143A, DHFR fusion (Arabidopsis thaliana, UniProt P49597)
Method: DHFR PCA, dose-response
Medium: yeast
Notes: Hill fit, mean, not affinity
With: (+)-ABA, dose series
Reading: lower = more sensitive
Quantity: ABA EC50
Starting sequence: PYL1, truncated, DHFR fusion (Arabidopsis thaliana, UniProt Q8VZS8); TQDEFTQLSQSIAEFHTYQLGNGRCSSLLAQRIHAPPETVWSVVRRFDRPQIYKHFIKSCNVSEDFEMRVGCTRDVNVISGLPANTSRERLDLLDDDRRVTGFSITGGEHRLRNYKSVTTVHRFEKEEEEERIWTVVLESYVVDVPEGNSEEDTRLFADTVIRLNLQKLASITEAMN
E151A: 2.18 µM
T101S: 11.3 µM
V145T: 8.86 µM
T86E: 13.8 µM
E152M: 4.43 µM
I12E: 152 µM
T86H: 1.64 µM
G148L: 40.6 µM
N77K: 1.36 µM
V143C: 9.41 µM
E125A: 2.5 µM
V143A: 40.1 µM
I162M: 459 µM
Q167L: 2.01 µM
S27C: 63 µM
V76M: 75.2 µM
E129K: 2.04 µM
V43K: 78.9 µM
P37Q: 29.5 µM
N114W: 578 µM
D159A: 61.4 µM
R24L: 7.98 µM

Sample 2
Target: Histone acetyltransferase KAT6A, winged helix 2, GST fusion (KAT6A, Homo sapiens, UniProt Q92794, residues 85-181)
Method: protein binding microarray
Form: double-stranded DNA, one strand shown
Medium: in vitro
Concentration: not given
Notes: 8-mer, flanks averaged, mean of 2 arrays, mostly near background
Relative to: not given
Reading: higher = stronger binding
Quantity: E-score
Residues (chain): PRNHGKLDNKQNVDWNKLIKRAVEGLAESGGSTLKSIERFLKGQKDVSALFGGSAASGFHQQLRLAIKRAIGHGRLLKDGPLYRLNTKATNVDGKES
GCGACTCC: -0.094
ATCACTCA: -0.0219
CTGACTTC: 0.0943
GAATCGCC: 0.0504
CCCAGCGG: 0.155
CGTATGTC: -0.135
AACTCTTA: -0.0161
TACCAAAA: -0.0942
AGTTGCTA: -0.00073
GTGTGTTA: -0.064
AGCCGGTC: -0.0291
GGAGCGCC: 0.187
AATCGCAG: 0.141
CGACGAAC: 0.0416

Sample 3
Target: RING finger protein unkempt homolog, zinc fingers 1-6, GST-SBP tag (UNK, Homo sapiens, UniProt Q9C0B0, residues 30-357)
Method: RNA Bind-n-Seq
Form: RNA
Medium: in vitro
Concentration: not given
Notes: RNA with constant flanks, human and mouse sites, ends assumed
Relative to: input RNA pool
Reading: higher = stronger binding
Quantity: bound/input enrichment
Constant ends, left off below: GGGAGUUCUACAGUCCGACGAUC … CAACAGAGGAUUGAGCAUCA
Residues (chain): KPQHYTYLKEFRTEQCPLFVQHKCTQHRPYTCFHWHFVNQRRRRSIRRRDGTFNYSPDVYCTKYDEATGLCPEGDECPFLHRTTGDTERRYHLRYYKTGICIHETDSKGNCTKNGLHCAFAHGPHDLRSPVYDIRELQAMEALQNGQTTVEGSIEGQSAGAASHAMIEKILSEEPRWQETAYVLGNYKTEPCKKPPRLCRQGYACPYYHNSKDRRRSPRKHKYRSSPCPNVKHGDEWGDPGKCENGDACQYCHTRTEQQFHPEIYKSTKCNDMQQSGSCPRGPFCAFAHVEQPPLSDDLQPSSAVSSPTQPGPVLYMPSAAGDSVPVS
GGAGCCAGACAUAUGGAAAGUGAGAAACUUGCUCAAAUAUUGGCAGCUAGACAGUUAGAAAUUAAACAGAUUCCAUCUGAUGGCCACUGUAUGUAUAAAGCCAUUGAAGAUCAACUGAAA: 1.86 ratio
GACACUCUCAUCAAGACAUUUGUGCGCUCACAGACUGCCCAGGUACAUGAUGGGAAAGGUAUUAGGUUUACUGCUAACGAGGACAUUCGGCCAGAAAAGGGGGCUGGUGUGGAUGACCCC: 0.398 ratio
UCUUUGGCUAACACCCAGCCCCGAGGGCCCCCAGCCUCAUCUCCGGCUCCAGCCCCUAAGUUUUCUCCAGUGACUCCUAAGUUUACUCCUGUGGCUUCCAAGUUCAGUCCUGGAGCCCCA: 0.25 ratio
CUCUUCAAGAGCAUCUGGAACAACAGAUGGCUGCGCACCAUCUCUGUGAUUCUCUUCCUCAACAAGCAAGACCUGCUUGCUGAGAAAGUCCUCGCUGGCAAAUCGAAGAUUGAGGACUAC: 0.147 ratio
UGCUGGAACGCAGCAGGAGACAAAGUUGGAGCCAGUGCUUCGGACGGUUCAGUUUGUGUCUUAGACCUUCGGAAAUAGCGUUACUAGUUGGAAGCCAUGGACCGACUAUGAAUGUGUACA: 0.401 ratio
GACAGCGACCUGCAGCUGGACCGCAUCUCUGUGUACUACAAUGAAGCCACAGGUGGCAAAUAUGUUCCUCGUGCCAUCCUGGUGGAUCUAGAACCUGGGACCAUGGACUCUGUUCGCUCA: 0.141 ratio
CAAAGUGUGCCAGAAUGUGAACAACACUGCGAAGAUAAAGAAGAGCCUUCAUUUUCAGAAGUAGAAGAACUGUUUCUUCAGACUACUUUUGACAAGAUGGAUUUUUUAACUACUGUCAAA: 0.0736 ratio
UAGAAGUCAACAUUUCUCCAAGCCUCCAUUCCAACUCUCCUCUGGACAUCAGCAUCAAAGGCCAGAUGAUCCGAGACCUUCUGAACCUGGCUGGCUUUGUUCUGCCCAACAUGGAGGAUA: 0.197 ratio
UCCAAAAAGAUCCAGCAGAUCCAUGUGGUUUCCCAGUUUAAGAUUCUGGUCAGCUUGUUAGAAAACAACAUUUAUGUCCAUGACUUACUGACAUUUCAACAAAUCACUACAGUCUCAAAG: 0.0898 ratio
GCAUCCUGAGCUGCACCCUGUACUGCAGCCUGGGGCCUGGUGGGUAUUUGGAGUCGCAUGUGGCUCUGUAUGGUUCCCAGCACAGCCGAAUUUGCACGUGGAGUGUGGUUAGGGGCAAAG: 0.119 ratio
AUCCAAUACUGGGGAUAAAUCCUAGAGAAACUCAUACAUGUACACCAGGAGAUGUGUACAAGAAUAUUCAUAGCAACCCUAUUCACAAAAGCAAAAGCCUAGAAAUAACCCAGAUGCCCA: 4.82 ratio

Sample 4
Target: CCNA2, cyclin fold, Cln2 fusion (human)
Method: yeast growth competition, sequencing
Medium: yeast
Notes: strong parent motif
Relative to: not given
Reading: higher = stronger binding
Quantity: normalised enrichment score
Starting sequence: ITGB3BP docking peptide (human); MPVKRSLKLDGLL
R5K L9F: 2.55
L7A: 1.79
L13A: 2.26
S6A: 3.22
L9A: 1.52
G11A: 3.06
L12A: 2.4
R5A: 0.569
R5K: 0.545
R5A L7A: 0.47
